Results from different studies.
± marks the error that the study gave.
Sequence of UniProt P19438 (whole entry, looked up): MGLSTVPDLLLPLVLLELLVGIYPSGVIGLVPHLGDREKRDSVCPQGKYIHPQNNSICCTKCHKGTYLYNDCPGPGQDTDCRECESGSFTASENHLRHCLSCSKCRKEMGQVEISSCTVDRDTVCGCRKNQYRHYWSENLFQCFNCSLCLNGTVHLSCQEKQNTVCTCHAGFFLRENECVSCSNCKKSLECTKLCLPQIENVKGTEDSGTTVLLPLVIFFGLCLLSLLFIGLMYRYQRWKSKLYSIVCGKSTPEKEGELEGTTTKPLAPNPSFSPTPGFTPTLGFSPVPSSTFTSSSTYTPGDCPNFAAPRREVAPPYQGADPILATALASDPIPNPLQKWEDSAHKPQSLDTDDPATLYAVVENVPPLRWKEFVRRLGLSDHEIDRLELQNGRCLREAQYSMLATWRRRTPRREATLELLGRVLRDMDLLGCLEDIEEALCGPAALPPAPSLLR
Sequence of UniProt A2RI47 (whole entry, looked up): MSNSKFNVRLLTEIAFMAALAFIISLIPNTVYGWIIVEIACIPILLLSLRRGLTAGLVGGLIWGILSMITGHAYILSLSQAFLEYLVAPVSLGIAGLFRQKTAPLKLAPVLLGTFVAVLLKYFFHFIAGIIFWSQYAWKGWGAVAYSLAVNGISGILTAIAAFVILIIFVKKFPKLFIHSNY
Sequence of UniProt Q9HC29 (whole entry, looked up): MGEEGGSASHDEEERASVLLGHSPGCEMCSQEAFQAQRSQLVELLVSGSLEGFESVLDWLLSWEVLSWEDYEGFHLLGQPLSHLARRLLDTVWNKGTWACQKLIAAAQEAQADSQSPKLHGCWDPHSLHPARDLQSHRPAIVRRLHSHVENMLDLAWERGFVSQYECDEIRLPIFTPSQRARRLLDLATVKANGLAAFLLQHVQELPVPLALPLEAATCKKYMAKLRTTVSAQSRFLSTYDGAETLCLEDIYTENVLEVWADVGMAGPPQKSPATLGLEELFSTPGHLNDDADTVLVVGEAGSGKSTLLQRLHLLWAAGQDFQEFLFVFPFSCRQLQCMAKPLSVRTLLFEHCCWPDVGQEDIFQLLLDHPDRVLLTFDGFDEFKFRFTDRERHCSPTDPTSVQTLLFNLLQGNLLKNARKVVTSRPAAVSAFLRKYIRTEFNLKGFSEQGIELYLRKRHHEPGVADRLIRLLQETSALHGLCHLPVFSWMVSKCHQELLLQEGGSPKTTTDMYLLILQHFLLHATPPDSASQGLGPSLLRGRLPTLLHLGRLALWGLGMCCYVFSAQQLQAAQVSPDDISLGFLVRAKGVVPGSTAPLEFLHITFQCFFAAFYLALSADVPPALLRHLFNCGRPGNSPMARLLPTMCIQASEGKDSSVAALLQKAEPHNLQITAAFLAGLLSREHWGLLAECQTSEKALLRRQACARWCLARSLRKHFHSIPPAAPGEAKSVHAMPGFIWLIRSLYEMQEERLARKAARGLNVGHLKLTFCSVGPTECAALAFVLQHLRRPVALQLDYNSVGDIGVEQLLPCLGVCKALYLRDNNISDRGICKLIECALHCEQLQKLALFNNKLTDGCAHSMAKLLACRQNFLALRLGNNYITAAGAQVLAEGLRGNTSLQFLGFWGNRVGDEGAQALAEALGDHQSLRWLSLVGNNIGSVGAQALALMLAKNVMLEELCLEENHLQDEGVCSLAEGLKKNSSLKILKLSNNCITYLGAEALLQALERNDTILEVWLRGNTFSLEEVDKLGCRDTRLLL
Sequence of UniProt P51449 (whole entry, looked up): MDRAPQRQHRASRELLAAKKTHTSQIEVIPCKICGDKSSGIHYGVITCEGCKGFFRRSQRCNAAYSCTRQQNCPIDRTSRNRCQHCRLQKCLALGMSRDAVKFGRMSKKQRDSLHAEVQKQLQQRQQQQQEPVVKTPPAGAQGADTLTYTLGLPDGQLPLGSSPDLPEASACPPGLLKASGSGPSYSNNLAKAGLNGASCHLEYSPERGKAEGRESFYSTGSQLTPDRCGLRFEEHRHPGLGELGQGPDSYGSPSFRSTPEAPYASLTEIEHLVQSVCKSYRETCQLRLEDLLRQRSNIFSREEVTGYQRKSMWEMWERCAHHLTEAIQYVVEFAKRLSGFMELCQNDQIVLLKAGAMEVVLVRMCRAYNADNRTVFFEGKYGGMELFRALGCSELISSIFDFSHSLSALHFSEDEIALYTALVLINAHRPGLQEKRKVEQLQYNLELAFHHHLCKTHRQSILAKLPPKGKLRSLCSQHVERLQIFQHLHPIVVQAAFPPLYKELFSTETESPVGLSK
Sequence of UniProt P97468 (whole entry, looked up): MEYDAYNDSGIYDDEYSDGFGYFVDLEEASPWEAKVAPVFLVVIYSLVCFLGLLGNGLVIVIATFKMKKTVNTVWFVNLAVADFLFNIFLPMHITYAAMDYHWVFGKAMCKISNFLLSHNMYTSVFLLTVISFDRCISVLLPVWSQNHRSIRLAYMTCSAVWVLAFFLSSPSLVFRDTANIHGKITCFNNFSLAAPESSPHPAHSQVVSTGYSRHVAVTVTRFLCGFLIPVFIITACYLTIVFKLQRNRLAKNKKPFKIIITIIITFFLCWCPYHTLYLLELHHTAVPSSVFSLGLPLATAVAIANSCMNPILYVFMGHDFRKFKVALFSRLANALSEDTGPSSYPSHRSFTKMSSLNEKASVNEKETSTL
Sequence of UniProt P35226 (whole entry, looked up): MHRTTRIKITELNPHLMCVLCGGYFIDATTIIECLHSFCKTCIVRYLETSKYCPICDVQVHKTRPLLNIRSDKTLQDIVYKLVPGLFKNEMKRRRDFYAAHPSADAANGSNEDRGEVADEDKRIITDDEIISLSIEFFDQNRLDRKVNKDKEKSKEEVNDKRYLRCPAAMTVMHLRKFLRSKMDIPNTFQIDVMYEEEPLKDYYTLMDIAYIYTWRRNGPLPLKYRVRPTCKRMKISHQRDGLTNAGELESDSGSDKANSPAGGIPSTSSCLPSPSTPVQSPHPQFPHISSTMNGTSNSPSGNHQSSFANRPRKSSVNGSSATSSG

CN(C)CCNC(=O)c1cccc2c(NCCCCc3c(N)nc(N)nc3N)c3ccccc3nc12
Kd (RNA with C–C mismatch; binding, ITC; 25 °C, 2): 162 ± 8 µM

C[C@@H](NC(=O)[C@H](Cc1ccccc1)NC(=O)[C@H](CCCNC(N)=O)NC(=O)CNC(=O)[C@@H]1C[C@@H](O)CN1C(=O)[C@H](CC1CCCCC1)NC(=O)[C@H](Cc1ccc(O)cc1)NC(=O)CCCCCNC(=O)CCC(C(=O)O)N1CCN(CC(=O)O)CCN(CC(=O)O)CC1)C(=O)N1Cc2ccccc2C[C@H]1C(=O)N[C@@H](CO)C(=O)O (stereo partly shown) [copper-64 labelled]
Kd (Chemerin-like receptor 1 (Mus musculus, UniProt P97468); binding, radioligand; HeLa transfected; 1 h): 0.192 µM

Fc1cc2c(c3ncccc13)OCN(CCc1cccc(Br)c1)C2
Kd (Large ribosomal subunit protein uL10 (rplJ, Escherichia coli, UniProt P0A7J3); binding): 20 µM

N=C(CCl)NCCNc1c2c(c(NCCNC(=N)CCl)c3sccc13)C(=O)c1ccccc1C2=O
Kd (Aurora kinase A (AURKA, Homo sapiens, UniProt O14965); binding, BLI): 29.9 µM

CC(C)c1c(-c2cccc3[nH]ccc23)[nH]c(C(=O)O)c1-c1c(Cl)ccc2[nH]ccc12
Kd (BMI1/RNF2 (Homo sapiens, UniProt P35226+Q99496)): 2.8 ± 0.45 µM

O=C(CCCOc1ccc(Cl)cc1Cl)N/N=C/c1ccc[nH]1
Kd (1-deoxy-D-xylulose-5-phosphate synthase (dxs, Deinococcus radiodurans, UniProt Q9RUB5); binding, SPR): 260 µM

C=C(CC(O)C(=O)O)C(=O)O (racemic)
Kd (Methylcytosine dioxygenase TET2, catalytic domain (TET2, Homo sapiens, UniProt Q6N021); binding, microscale thermophoresis): 0.3 µM

C[C@H](CCC(=O)NCCC(c1ccccc1)c1ccccc1)[C@H]1CC[C@H]2[C@@H]3CC[C@@H]4CC(=O)CC[C@]4(C)[C@H]3CC[C@]12C
Kd (Nuclear receptor ROR-gamma (RORC, Homo sapiens, UniProt P51449); binding, MST): 0.0572 µM

Cc1ncc(Cc2csc(C=NNC(=O)[C@@H](N)Cc3ccc(O)cc3)c2C)c(N)n1 (mixture of isomers)
Kd (Thiamine transporter ThiT (Lactococcus lactis subsp. cremoris, UniProt A2RI47); binding, ITC): 8.41 µM

COC(=O)CC[C@@H](NC(=O)[C@H](C)NC(=O)[C@@H](C)O[C@H]1[C@H](O)[C@@H](CN)OC(O)[C@@H]1NC(C)=O)C(N)=O (stereo partly shown)
Kd (Nucleotide-binding oligomerization domain-containing protein 2 (NOD2, Homo sapiens, UniProt Q9HC29); binding, SPR; pH 6.5): 0.012 to 0.024 µM

Cc1ncsc1-c1ccc([C@@H]2CCCCCCNC(=O)C[C@@H]3N=C(c4ccc(cc4)OCCCCCC(=O)N[C@@H](C(C)(C)C)C(=O)N4C[C@H](O)C[C@H]4C(=O)N2)c2c(sc(C)c2C)-n2c(C)nnc23)cc1
Kd (BRD4/VHL, BD2; with elongins B/C (Homo sapiens, UniProt O60885+P40337); ternary complex binding, biolayer interferometry; added: VHL-ElonginC-ElonginB): 0.0069 µM

COc1cc(C(=O)NS(=O)(=O)c2ccc(C(F)(F)F)cc2)ccc1Cc1cn(C)c2ccc(NC(=O)OC3CCCC3)cc12
Kd (Tumor necrosis factor receptor superfamily member 1A, extracellular domain (Homo sapiens, UniProt P19438); binding, 19F NMR; PBS; pH 7.4): 4.6 µM

CCCC[C@@H]1NC(=O)[C@H](Cc2ccc(O)cc2)NC(=O)[C@@H]2CCCN2C(=O)[C@H](CC(=O)O)NC(=O)[C@H](C)NC(=O)[C@H](Cc2ccccc2)NC(=O)[C@@H]2CSCCC(=O)N3CN(CN(C3)C(=O)CCSC[C@@H](C(=O)N[C@@H](C)C(N)=O)NC1=O)C(=O)CCSC[C@H](NC(C)=O)C(=O)N[C@@H](CC(C)(C)C)C(=O)N1CCC[C@H]1C(=O)N[C@@H](CCC(=O)O)C(=O)N[C@H](CCCCNC(=O)CCc1cn(CCOCCOCCOCCN(CCOCCOCCOCCC(=O)N[C@H]3CSCCC(=O)N4CN5CN(C4)C(=O)CCSC[C@H](NC(=O)[C@@H](CC(=O)O)NC(=O)[C@H](Cc4cccc6ccccc46)NC(=O)[C@@H]4CCCN4C3=O)C(=O)N[C@@H](CCSC)C(=O)N[C@@H](CCCCNC(=N)N)C(=O)N[C@@H](CC(=O)O)C(=O)N[C@@H](Cc3c[nH]c4ccccc34)C(=O)N[C@@H](CO)C(=O)N[C@@H]([C@@H](C)O)C(=O)N3CCC[C@H]3C(=O)N3C[C@H](O)C[C@H]3C(=O)N[C@@H](Cc3c[nH]c4ccccc34)C(=O)N[C@H](C(N)=O)CSCCC5=O)CCOCCOCCOCCn3cc(CCC(=O)NCCCC[C@H]4NC(=O)[C@H](CCC(=O)O)NC(=O)[C@@H]5CCCN5C(=O)[C@H](CC(C)(C)C)NC(=O)[C@@H](NC(C)=O)CSCCC(=O)N5CN6CN(C5)C(=O)CCSC[C@H](NC(=O)[C@H](Cc5ccc(O)cc5)NC(=O)[C@@H]5CCCN5C4=O)C(=O)N[C@@H](Cc4ccccc4)C(=O)N[C@@H](C)C(=O)N[C@@H](CC(=O)O)C(=O)N4CCC[C@H]4C(=O)N[C@@H](Cc4ccc(O)cc4)C(=O)N[C@@H](CCCC)C(=O)N[C@H](C(=O)N[C@@H](C)C(N)=O)CSCCC6=O)nn3)nn1)C(=O)N1CCC[C@H]1C(=O)N[C@@H](Cc1ccc(O)cc1)C(=O)N2
Kd (Tumor necrosis factor receptor superfamily member 9 (Tnfrsf9, Mus musculus, UniProt P20334); SPR; added: captured on human Nectin-4): no binding

A few entries again:
COc1cc(C(=O)NS(=O)(=O)c2ccc(C(F)(F)F)cc2)ccc1Cc1cn(C)c2ccc(NC(=O)OC3CCCC3)cc12
Kd (Tumor necrosis factor receptor superfamily member 1A, extracellular domain (Homo sapiens, UniProt P19438); binding, 19F NMR; PBS; pH 7.4): 4.6 µM
